Published values gathered from unrelated publications.
Values joined by “and” are separate records of one study, mostly repeats; a detail may differ. ± gives the spread as reported. Values after ≈ are worked out from the molar mass of the structure shown.

SMILES | cell line | assay | test system | conditions | how to read | endpoint | value
COc1ccc(N(CC2CCC2)S(=O)(=O)C2CC3OC2C(c2ccc(O)cc2)=C3c2ccc(O)cc2)cc1 (stereo not drawn) | MCF7 3xERE-luc, steroid-deprived | ERE luciferase reporter, agonist |  |  |  | EC50 | 31.6 nM
COc1cnc(OC)n2nc(NS(=O)(=O)c3c(OCC(F)F)cccc3C(F)(F)F)nc12 | HEK293T | cytotoxicity, CCK-8 |  | 100 µM, 72 h |  | inhibition | 0.68 ± 0.19%
CC(c1ccccc1)(c1ccc(O)cc1)c1ccc(O)cc1 | HepG2 spheroids | Hoechst flow cytometry |  | 0.1 µM, 24 h |  | S phase cells | 8.54 ± 0.83%
CCN(CC)c1ccc(C=NNC(=O)CSc2nc3ccccc3c(=O)n2Cc2ccc(S(N)(=O)=O)cc2)c(O)c1 | 786-0 | NCI five-dose screen |  |  |  | CC50 | > 100000 nM
Cn1nccc1Nc1nccc(-c2cc3c(s2)C(C)(C)N(CCN2CCOCC2)C3=O)n1 | HCT116 | IncuCyte |  | concentration not given, 44 (unit not given) |  | PI-positive cells | 32 count and 31.3 count and 20.6 count
COc1c(CCC[P+](c2ccccc2)(c2ccccc2)c2ccccc2)cc2c(c1OC)OCO2.[I-] | CCRF-CEM | SRB |  |  |  | Log10LC50 | > -4 log M
Oc1cc(O)cc(-c2cc3ccc(O)cc3o2)c1 | 3T3 | cell growth, MTT |  | 12.5 µg/mL, 48 h |  | cell survival | 67.4 ± 0.72%
Nc1ncc(-c2nc(N3CCOCC3)nc(N3CCOCC3)n2)c(C(F)F)n1 | FaDu |  |  | 72 h |  | GI50 | 288 nM
CC(C)N1CCC(NC2CCN(c3cccc(-c4cc5cc(F)ccc5[nH]4)c3)CC2)CC1 | Hs-578T |  |  |  |  | GI50 | 1720 nM
O=C(c1cc(-n2sc3ncccc3c2=O)ccc1Cl)N1CCOCC1 | HIV-infected PBMCs | item: HLA-A2 |  | 1.0 µM, two donors |  | MHC-I surface recovery | 15.9 ± 5.3%
C/C=C(/C)C(=O)O[C@H]1C(C)=C2[C@H]([C@@H]1OC(=O)CCCCCCC)[C@@](C)(OC(C)=O)C[C@H](OC(=O)CCC)[C@@]1(O)[C@H]2OC(=O)[C@@]1(C)O | HEK293 | western blot, item: total eIF2α |  | 3 µM, 6 h, unit not given | relative to: mock | protein level | 1.22 and 1.03 and 1.12
COc1cc(CCC[P+](c2ccccc2)(c2ccccc2)c2ccccc2)c(OC)c2c1OCO2.[I-] | MDA-MB-435 | SRB |  |  |  | GI50 | -6.31 log M
Cc1nn(-c2nc3ccc(Cl)c(Cl)c3[nH]2)c(O)c1C1OC(=O)c2ccccc21 (stereo not drawn) | RAW-ISG | CCK-8 |  | 0.3 µM |  | viability | 104% and 107% and 114% and 99%
COc1c(C)c2c(c(O)c1C/C=C(\C)CCC(=O)O)C(=O)OC2 | U2OS | cell proliferation | bone cancer |  |  | IC50 | 724 nM
COc1ccc2c(c1)CC[C@@H]1[C@@H]2CC[C@]2(C)[C@@H](NCCCCCCN3C(=O)C=CC3=O)CC[C@@H]12 | N2a | fluorescence signal increase, inhibitor |  | 1 µM, activation phase, together with: BzATP 300 µM |  | effect on signal | no effect
O=C1N(Cc2ccccc2Cl)c2ccccc2C12NN=C(c1ccccc1)S2 (stereo not drawn) | MDA-MB-468 | gene expression array, item: DEDD2 mRNA |  | 10 µM, 12 h | relative to: untreated, up | fold change | 2.01
CN1CCN(S(=O)(=O)c2cc([N+](=O)[O-])ccc2N(CCOS(C)(=O)=O)CCOS(C)(=O)=O)CC1 | HCT-116 overexpressing AKR1C1 | cell growth, sulforhodamine B |  | 96 h |  | IC50 | 15700 nM

SMILES | cell line | assay | test system | conditions | how to read | endpoint | value
Nc1ncnc2c1ncn2[C@@H]1O[C@@H]2COP(=O)(O)O[C@H]3[C@@H](O)[C@H](n4cnc5c(=O)[nH]cnc54)O[C@@H]3COP(=O)(O)O[C@H]2[C@H]1O | HFF-1 | RNA sequencing, item: Reactome R-HSA-5627123 |  | downregulated pathway | relative to: Zika virus alone | pathway fold enrichment | 17
NCCc1ccccn1 | primary rat hippocampal/cortical neuron-glia cultures |  |  | 1 µM, together with: 1 µM α-synuclein oligomers |  | reversal of trafficking deficit | -18.4%
Cc1cc(Cl)c(Cl)cc1NC(=O)c1ccc(N2CCNCC2)c(C#N)c1 | J774.A1 | cytotoxicity |  |  |  | EC50 | 1900 ± 1600 nM
CC(C)=CCc1c(O)cc(O)cc1-c1cc2ccc(O)c(CC=C(C)C)c2o1 | 3T3 | cell growth, MTT |  | 100 µg/mL, 48 h |  | cell survival | 33.7 ± 0.42%
Oc1ccc(C2(c3ccc(O)cc3)c3ccccc3-c3ccccc32)cc1 | HepG2 spheroids | Hoechst flow cytometry |  | 40 µM, 24 h |  | G1 phase cells | 75.9 ± 2.35%
COc1ccc2c(c1)[nH]c1c(C)nccc12 | DU-145 | bisulfite pyrosequencing, item: RASSF1A promoter CpG site 28 |  | 10 µM, 16 h |  | DNA methylation | 76%
Cn1cncc1C1=CN(c2ncnc3[nH]cnc23)CCS1 | MDA-MB-435 |  |  | melanoma cell line |  | CC50 | > 200000 nM
O=C1CCP(=S)(c2ccccc2)CC1 | HaCaT | trypan blue |  | IC50, 72 h |  | viability reduction | 27 to 31%
C[C@@H](O)[C@H]1C(=O)N2C(C(=O)O)=C(SCCN=CN)C[C@H]12 | Escherichia coli DH5α expressing KPC-25 | bacterial growth |  |  |  | MIC | 0.125 µg/mL (≈ 0.418 µM)
CN1CCN(C2(CNC3CCN(c4cccc(-c5cc6cc(F)ccc6[nH]5)c4)CC3)CCC2)CC1 | SNB-19 |  |  | NCI60 CNS cancer panel |  | TGI | 3770 nM
Cn1cc2cc(C(F)(F)c3nnc4ccc(-c5cnn(C6CC6)c5)nn34)c(F)cc2n1 | MKN-45 | PI flow cytometry |  | 200 nM, 24 h |  | cells in G1 phase | 90.5% and 90.9% and 90.2%
C/C=C(/C)C(=O)O[C@H]1C(C)=C2[C@H]([C@@H]1OC(=O)CCCCCCC)[C@@](C)(OC(C)=O)C[C@H](OC(=O)CCC)[C@@]1(O)[C@H]2OC(=O)[C@@]1(C)O | HEK-293T | RNA-seq GSEA, item: Hallmark cholesterol homeostasis |  | 500 nM, 6 h | direction not given | normalized enrichment score | 2.13
COc1ccc([C@H]2c3[nH]c4ccc(Cl)cc4c3CCN2C(=O)Oc2ccc(Cl)cc2)cc1 | CD19+ B cells with PBMC | cytokine secretion, item: s-IL-17F |  | 0.1 µM, 72 h, BioMAP BT system |  | inhibition | 74%
N.N.[Cl][Pt][Cl] | NAMALWA CSN/70 | cell proliferation, CellTiter-Glo |  | 10 µM, 72 h |  | inhibition | 100%
C[C@H]1[C@H](C)CC[C@]2(C(=O)O)CC[C@]3(C)C(=CC[C@@H]4[C@@]5(C)CC[C@H](O)C(C)(C)[C@@H]5CC[C@]43C)[C@H]12 | 3T3 | cell growth, MTT |  | 3.6 µg/mL, 48 h |  | cell survival | 82.2 ± 1.2%
Oc1cc(Cl)ccc1Oc1ccc(Cl)cc1Cl | HepG2 | high content imaging, item: DNA structure |  | 24 h, distribution mode 1 |  | point of departure | 0.977 µM

A few entries again:
SMILES | cell line | assay | test system | conditions | how to read | endpoint | value
CC(c1ccccc1)(c1ccc(O)cc1)c1ccc(O)cc1 | HepG2 spheroids | Hoechst flow cytometry |  | 0.1 µM, 24 h |  | S phase cells | 8.54 ± 0.83%
COc1cnc(OC)n2nc(NS(=O)(=O)c3c(OCC(F)F)cccc3C(F)(F)F)nc12 | HEK293T | cytotoxicity, CCK-8 |  | 100 µM, 72 h |  | inhibition | 0.68 ± 0.19%
